Experimental data gathered from unrelated publications.
Each line is one published result; not all experiments were run side by side. Values joined by “and” are separate records of one study, mostly repeats; a detail may differ. ± marks the error that the study gave. Values after ≈ are worked out from the molar mass of the structure shown.

| SMILES | target or system | test | test system | conditions | how to read | endpoint | result |
| --- | --- | --- | --- | --- | --- | --- | --- |
| O=C(Nc1cnccc1-c1ccc([18F])nc1)c1ccnc(NC(=O)C2CC2)c1 |  |  | FVB/NJ mice (both sexes), lung | intravenous, dose not given, 120 min, together with: tariquidar 15 mg/kg i.v. pre-dose |  | SUV | 0.204 |
| O=C1C2CC3CC1CC(C(=O)N1CCN(c4ccc([N+](=O)[O-])c5ncccc45)CC1)(C3)C2 | Salmonella typhimurium | Ames test | TA98 | 0.02 µg/well, with S9 | baseline: vehicle | revertant fold increase | 1.3 |
| CC[C@H](C)[C@@H]1NC(=O)[C@H](Cc2ccc(O)cc2)NC(=O)CCCSC[C@@H](C(=O)N(CC(=O)N[C@@H](CC(C)C)C(=O)NCC(N)=O)Cc2ccc(F)cc2)NC(=O)[C@H](CC(N)=O)NC(=O)[C@H](CCC(N)=O)NC1=O |  |  | human | intranasal, 50 µg, 11 repeated doses |  | subjects with any TEAE | 50% |
| COc1cccc(OC)c1-c1cc(C(=O)NC2(C(=O)O)C3CC4CC(C3)CC2C4)nn1-c1ccc(C(=O)N(C)CCCN(C)C(=O)[C@H](CCCCNC(=O)[C@H](CC(C)C)NC(=O)C2OC2C(=O)O)NC(=O)CN2CCN(CC(=O)[O-])CCN(CC(=O)[O-])CCN(CC(=O)[O-])CC2)cc1C(C)C.[177Lu+3] (mixture of isomers) |  |  | mouse HT-29 xenograft, small intestine | 72 h post injection, biodistribution |  | tissue uptake | 0.109 %ID/g |
| CSCC[C@H](NC(=O)[C@H](CC(=O)O)NC(C)=O)C(=O)N[C@@H](Cc1ccc(O)cc1)C(=O)N[C@@H](Cc1ccc(O)cc1)C(=O)N[C@@H](CCCNC(=N)N)C(=O)N[C@@H](Cc1ccc(O)cc1)C(=O)N[C@@H](CC(N)=O)C(=O)NCC(=O)N[C@@H](CCCCN)C(=O)N[C@H](C(=O)N[C@@H](Cc1c[nH]c2ccccc12)C(=O)N[C@@H](Cc1c[nH]c2ccccc12)C(=O)N[C@@H](CCCNC(=N)N)C(=O)O)C(C)C |  | circular dichroism | free peptide in solution | concentration not given, 25 °C, no insulin present |  | α-helix content | 6.71% |
| COC1CN([C@H]2CC[C@H]([C@@]3(C)Oc4c(Cl)cc(C(=O)NCc5c(SC)cc(C)[nH]c5=O)c(C)c4O3)CC2)C1 |  | RNA-seq, item: SMARCD3 mouse homolog | mouse, HT-1376 xenograft, whole blood | dose not given | baseline: vehicle | log2 fold change | 0.515 |
| OC[C@H]1O[C@@H](n2cnc3c(SCc4ccccc4)nc(Cl)nc32)C[C@@H]1O |  | UV absorbance | culture medium | stock diluted to 0.10 mM |  | solubility | 21.4 µM (≈ 8.41 µg/mL) |
| CC(=O)N([O-])CCCCCNC(=O)CCC(=O)N([O-])CCCCCNC(=O)CCC(=O)N([O-])CCCCCN.[89Zr+4] |  | radio-TLC | aqueous buffer | 7 d, pH 7.2, 37 °C, 89Zr-labelled complex, together with: CoCl2 10-fold excess |  | intact complex | 96.4 ± 1.4% |
| C=C(NC(=O)c1csc(-c2nc3c(cc2O)-c2nc(cs2)C(=O)NC(C(C)O)C(=O)NC(=C(C)OC)c2nc(cs2)C(=O)NC2c4nc(cs4)C(=O)NC(COC(=O)c4c5c6c(cccc6n4O)COC(=O)C(OC4CC(C)(O)C(N(C)C)C(C)O4)C2OC5)c2nc-3cs2)n1)C(N)=O (stereo not drawn) |  |  | cynomolgus monkey, both sexes, plasma | intravenous infusion, 3 mg/kg multiple doses, day 7 |  | half-life | 5.98 h |
| Cc1nn(-c2nc3c(F)cc(F)cc3s2)c(O)c1C(c1ccc(C(F)(F)F)cc1)c1c(C)nn(-c2nc3c(F)cc(F)cc3s2)c1O |  |  | ICR mouse, plasma | oral, 50 mg/kg |  | MRT(0-last) | 4.05 h and 6.31 h and 4.04 h |
| Cc1noc(C)c1Cn1cc(N2C(=O)CN(Cc3cccc(OS(=O)(=O)O)c3)C2=O)cn1 |  |  | Sprague-Dawley rat, male | oral, 30 mg/kg of parent drug, 2 h |  | plasma concentration | 3320 ng/mL |
| CNS(=O)(=O)Nc1nccc(Cc2c(C)c3ccc(Oc4ncccc4F)cc3oc2=O)c1F | NCI-H2087 | cell viability |  | 7 days |  | IC50 | 1.15 nM |
| Cc1ncsc1-c1ccc(C(C)NC(=O)C2CC(O)CN2C(=O)C(NC(=O)CCCCCCCCCCN2CCCC(Nc3ncc(Cl)c(Nc4ccccc4S(=O)(=O)C(C)C)n3)C2)C(C)(C)C)cc1 (stereo not drawn) | 22Rv1 | RNA-seq, item: USP40 mRNA |  | concentration not given | baseline: DMSO | log2 fold change | -1.02 |
| Nc1ncc(-c2cc(-c3cnn(CC(F)(F)F)c3)ncc2F)nc1C(=O)NC1CNCC(F)C1 (stereo not drawn) | SBK1 | KINOMEscan |  | 1 µM | baseline: DMSO control | remaining binding | 66% |
| COc1ccnc(C(=O)N[C@H]2COC(=O)[C@H](Cc3ccccc3)[C@@H](OC(=O)C(C)C)[C@H](C)OC2=O)c1O |  |  | bovine milk | -18 °C |  | storage stability of residues | 6 months |
| C[C@]12C[C@H](c3ccc(S(C)(=O)=O)cc3)C3=C4CCC(=O)C=C4CC[C@H]3[C@@H]1CC[C@@]2(O)C(F)(F)C(F)(F)F |  | item: compound (parent) | healthy human volunteers, pooled plasma | oral, 5 mg daily, day 28, 2 h |  | plasma concentration | 30 ng/mL |
| COc1cccc(OC)c1-c1cc(C(=O)NC2(C(=O)O)C3CC4CC(C3)CC2C4)nn1-c1ccc(C(=O)N(C)CCCN(C)CCCN(C)C(=O)[C@H](CCCCNC(=O)[C@H](CC(C)C)NC(=O)C2OC2C(=O)O)NC(=O)CN2CCN(CC(=O)[O-])CCN(CC(=O)[O-])CCN(CC(=O)[O-])CC2)cc1C(C)C.[177Lu+3] (mixture of isomers) |  |  | mouse, HT-29 xenograft | 24 h post injection, biodistribution | baseline: tumour over lung uptake | tumour-to-lung ratio | 20.2 |
| CN1CCCNC(=O)c2cccc(c2)C(=O)NCCCN(C)CCCNc2cccc3c2C(=O)c2cccc(c2C3=O)NCCC1 | SAS | RNA-Seq, item: TGDS mRNA |  | 1 µM, 6 h | baseline: untreated cells | log2 fold change | 0.639 |

Some of these lines once more:
| SMILES | target or system | test | test system | conditions | how to read | endpoint | result |
| --- | --- | --- | --- | --- | --- | --- | --- |
| CC[C@H](C)[C@@H]1NC(=O)[C@H](Cc2ccc(O)cc2)NC(=O)CCCSC[C@@H](C(=O)N(CC(=O)N[C@@H](CC(C)C)C(=O)NCC(N)=O)Cc2ccc(F)cc2)NC(=O)[C@H](CC(N)=O)NC(=O)[C@H](CCC(N)=O)NC1=O |  |  | human | intranasal, 50 µg, 11 repeated doses |  | subjects with any TEAE | 50% |
| COc1cccc(OC)c1-c1cc(C(=O)NC2(C(=O)O)C3CC4CC(C3)CC2C4)nn1-c1ccc(C(=O)N(C)CCCN(C)C(=O)[C@H](CCCCNC(=O)[C@H](CC(C)C)NC(=O)C2OC2C(=O)O)NC(=O)CN2CCN(CC(=O)[O-])CCN(CC(=O)[O-])CCN(CC(=O)[O-])CC2)cc1C(C)C.[177Lu+3] (mixture of isomers) |  |  | mouse HT-29 xenograft, small intestine | 72 h post injection, biodistribution |  | tissue uptake | 0.109 %ID/g |
